Experimental data gathered from unrelated publications.
Parts stem from different laboratories: compare values within a part only. Changes are numbered by the printed parent chain.

Sample 1 — technique: RNA Bind-n-Seq; form: RNA; matrix: in vitro; tested at: 365 nM; relative to: no-protein control; reading: higher = stronger binding; measurement: RBNS enrichment (R)
Target: RNA binding protein fox-1 homolog 2, RRM domain, GST-SBP tag (RBFOX2, Homo sapiens, UniProt O43251-10, residues 100-194)
Setting: natural RNA segment, single round, ends assumed
Constant ends, left off below: GGGAGUUCUACAGUCCGACGAUC … UGGAAUUCUCGGGUGCCAA
Target sequence (chain): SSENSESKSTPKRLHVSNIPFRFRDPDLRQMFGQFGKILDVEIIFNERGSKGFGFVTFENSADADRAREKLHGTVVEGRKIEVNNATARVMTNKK
GAUAGAGGCAGUUUCUAGAGAACUCGGUCUUAUCGUGGGUUCUGGAGCACACCUCUCAGACCAGUCAGGAACACUGGGGAGGUGACAGCAGGUCCCCAGGGGCCUGCAGG: 0.266
UGUGCAUUUGUCAGUCUGGUAGAGUGGACUGGAGGUUGUCAAGUCUGCAUUGUAGUCUGAGUGUGCCACAUGUUAGCAAUGUGACCUUGGGCCACACACCUCUUCUGGGC: 0.981
UGUGAAAAUGUAGCAUGCUGUCUAUGUGGACGCCCUAGGAUGAGUGAUGUGAAACGCUGCACUACUGCGGUGAAUGGGUUCACACAUGGGUAAUGAGCAAAACCGAAAGC: 11.9
UGGCUGCUCAACACACUCCUCCCCUCUCUCCUUUAAGCUGUGUCCAGUGAAAGCUGUCCUUCCUGUAUUCUGUUCUCUGGUAAUGUAAUAAGCAUGAUGGUGCCUUCUAU: 11.1
AAAGAUAAGCCCGCCAUGCUGGGCUGGGGAACUCUGAAGAAGACCAGCAACGAGUACCUUCUCCCGCCUUGCCUCAGCGUAGAAGGGCUGCACUCUUGGCUGGUGUGAGU: 1.06
CCAGUGGGUCUGGGAUAUGGCUGCCCAGGAGACAGACCACUUGCCACGCUGUUGUAAAAACCCAAGUCCCUGUCAUUUGAACCUGGAUCCAGCACUGGUGAACUGAGCUG: 0.596
AAGAAUUGGCUUGUAUAGUUAUAACAACCACAGUAGAAACAUUUCUACUUUGAGAGAAUUUCAAUAUUCUCUUAAUGUUGUGUAAUUGAUUAGGUAACUAAAAAGCGCAA: 0.435
CCACUAACUGCUUGCUGGGGACAGGCAAACCCGGACUGUGCAAAGUUACUAGCCCGUAGCUCUUGGGCUGCUCCACAUGGCUCCUUACGGCCGGCAAGAAUGGAUGUAAA: 1.43

Sample 2 — technique: DHFR PCA, deep sequencing; matrix: yeast; added: (+)-ABA 58 µM; relative to: wild-type fitted maximum; reading: higher = stronger binding; measurement: relative binding score
Target: ABI1, truncated, D143A, DHFR fusion (Arabidopsis thaliana)
Setting: methotrexate growth selection, single substitutions
Parent: PYL1, truncated, DHFR fusion (Arabidopsis thaliana); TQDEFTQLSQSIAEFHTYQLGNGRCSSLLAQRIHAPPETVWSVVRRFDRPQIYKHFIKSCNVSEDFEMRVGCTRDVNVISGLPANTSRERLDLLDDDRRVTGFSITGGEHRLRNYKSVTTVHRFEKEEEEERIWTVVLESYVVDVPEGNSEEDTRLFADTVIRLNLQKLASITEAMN
L20E: 94.6%
G148V: 23.6%
P146N: 24.9%
K54R: 18.4%
S87D: -13.8%
S27G: 93%
R99W: 99.6%
L8P: 25.6%
N61V: 90.2%
R24D: 50.6%
G107I: -3.34%
G148H: 68.9%
R111L: 64.5%
L169V: 9.71%
L112M: 82.1%
A35I: -1.71%

Sample 3 — technique: protein binding microarray; form: double-stranded DNA, one strand shown; matrix: in vitro; tested at: not given; relative to: not given; reading: higher = stronger binding; measurement: E-score
Target: Histone acetyltransferase KAT6A, both winged helices, GST fusion (KAT6A, Homo sapiens, UniProt Q92794, residues 1-181)
Setting: 8-mer, flanks averaged, mean of 2 arrays, mostly near background
Target sequence (chain): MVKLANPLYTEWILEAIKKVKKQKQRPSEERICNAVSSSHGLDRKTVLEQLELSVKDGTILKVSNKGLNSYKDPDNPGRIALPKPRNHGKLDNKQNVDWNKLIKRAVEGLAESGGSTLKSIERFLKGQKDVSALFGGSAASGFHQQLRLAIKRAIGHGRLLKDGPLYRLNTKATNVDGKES
CCGGTGCC: 0.191
AGACATGA: -0.109
GAAGAGGA: -0.0472
GCTTTGAC: -0.0182
GAAAGGGC: -0.112
CACACTCC: -0.0646
CGGGCTAC: 0.155
GTCTAGAC: 0.0455
TCCCGTCA: 0.228
CACTACTA: -0.163
ACGCAAGC: 0.0938
TCGCAACA: 0.00671
TATTCGGA: -0.0238
ATGGGTTA: -0.16
CCTACCAC: -0.028
AACTGTGT: -0.123
ATAACAAT: -0.108
ATATAACC: -0.0633
GAAGTTTA: -0.0443
CATCCTGG: -0.122
CTCCCGAC: 0.149
GCAATCTA: -0.0387
CAAGATGA: -0.156
TCGCTGCA: 0.104
TCTCGACA: -0.096

Sample 4 — technique: protein-binding microarray; form: double-stranded DNA, one strand shown; matrix: in vitro; tested at: 0.8 µM; setting: whole 60-bp probe, no competitor; reading: higher = stronger binding; measurement: fluorescence intensity; constant ends, left off below: … GTCTTGATTCGCTTGACGCTGCTG
Target: Centromere-binding protein 1, full length, N-terminal tag (CBF1, Saccharomyces cerevisiae, UniProt P17106, residues 1-351)
UniProt P17106, sequence (whole entry, looked up): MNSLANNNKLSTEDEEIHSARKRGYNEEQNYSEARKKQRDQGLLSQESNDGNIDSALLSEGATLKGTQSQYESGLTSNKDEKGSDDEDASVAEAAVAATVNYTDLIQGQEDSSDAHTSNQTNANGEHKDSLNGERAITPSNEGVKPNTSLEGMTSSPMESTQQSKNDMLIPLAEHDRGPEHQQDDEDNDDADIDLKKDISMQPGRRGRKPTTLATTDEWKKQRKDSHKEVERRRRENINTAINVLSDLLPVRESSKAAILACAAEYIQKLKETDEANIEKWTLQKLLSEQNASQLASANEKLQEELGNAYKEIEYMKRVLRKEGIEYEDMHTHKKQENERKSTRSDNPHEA
CTAAGTATACCTTGTGACCTGAAGATTTACTTTTTC: 1040 a.u.
CTAGCGCACTATAGTCACATCTTATTATGTTAGTTC: 532 a.u.
CTAAATTTTTCGCGTACCACCACCATTACACATTTC: 552 a.u.
CTACTAAATTGAAATCAGTTGAAAAACAGAAGGTTC: 632 a.u.
TGTACGAAGCTATGTCACATTCGTATAGTAGTTAGG: 549 a.u.
CTAAACAATTACCAACATGTGGTACATATTGGATTC: 1080 a.u.
CCTAACTACTATAAGATCGTGCAATAGCTTCGTACA: 552 a.u.
CTAGAAAAGAATTAAAACGTGAAATTTCCTTTTTTC: 548 a.u.
GAAAGATCTATATGTCACCATTGCTAAAGAGGATAG: 595 a.u.
CCTAACTACTATAAGCGCATGATATAGCTTCGTACA: 554 a.u.
TGTACGAAGCTATAGCATGTGATTATAGTAGTTAGG: 2010 a.u.
GAATAATGTACTAGTAACGTGAATACTAGTCCATAG: 696 a.u.
CTATTTTATTGTATGCTCGTGCCCGTTTTTTCTTTC: 930 a.u.
CTATTGTGTGAGTTCCACGTGCGGATGACTTAATTC: 2180 a.u.
GAAGAATGAGAAAAACCGATCACGTACATCGATTAG: 1100 a.u.
GAACTACCAAAAGATCACCTGAGGATAATTTTTTAG: 1090 a.u.
GAAGAACGTTGGAGCAGCGTCACGGGTGCGCAGTAG: 1320 a.u.
CCTAACTACTATAATCACACTTTATAGCTTCGTACA: 543 a.u.
GAAGATTTTGAGCGTGATATTATTCCAATGGCTTAG: 615 a.u.

Repeated from above (sample 4):
GAAGATTTTGAGCGTGATATTATTCCAATGGCTTAG: 615 a.u.
GAAAGATCTATATGTCACCATTGCTAAAGAGGATAG: 595 a.u.
CTAGAAAAGAATTAAAACGTGAAATTTCCTTTTTTC: 548 a.u.
CTATTGTGTGAGTTCCACGTGCGGATGACTTAATTC: 2180 a.u.
CCTAACTACTATAATCACACTTTATAGCTTCGTACA: 543 a.u.
GAAGAACGTTGGAGCAGCGTCACGGGTGCGCAGTAG: 1320 a.u.
CCTAACTACTATAAGCGCATGATATAGCTTCGTACA: 554 a.u.
CTAAGTATACCTTGTGACCTGAAGATTTACTTTTTC: 1040 a.u.
